Measured values collected from several papers.
Protocols differ between the studies behind these lines. Numbers after ± are the reported error. In brackets after ≈: the same amount, converted by molar mass.

CCCCCOc1ccc(-c2cc(-c3ccc(C(=O)N[C@H]4C[C@@H](O)[C@@H](O)NC(=O)[C@@H]5[C@@H](O)[C@@H](C)CN5C(=O)[C@H]([C@H](O)CC(N)=O)NC(=O)[C@H]([C@H](O)[C@@H](O)c5ccc(O)c(OS(=O)(=O)O)c5)NC(=O)[C@@H]5C[C@@H](O)CN5C(=O)[C@H]([C@@H](C)O)NC4=O)cc3)no2)cc1 gave an AUC(0-24) of 163 µg·h/mL (human, plasma; intravenous, 7 mg/kg/day).
`bleomycin` gave a body weight of 80% (C57BL/6N mice, pulmonary fibrosis model; intratracheal, 1.5 units/kg once, day 0; baseline: initial).
For CC[C@H](C)[C@H](NC(=O)[C@H](C)NC(=O)[C@H](CCCCN)NC(=O)[C@H](CC(C)C)NC(=O)[C@H](C)NC(=O)[C@@H](NC(=O)[C@H](Cc1c[nH]cn1)NC(=O)[C@H](CC(C)C)NC(=O)[C@@H](NC(=O)[C@@H](NC(=O)[C@H](CCCCN)NC(=O)[C@H](CCCCN)NC(=O)[C@H](C)NC(=O)[C@H](CO)NC(=O)[C@H](CCCCN)NC(=O)[C@H](Cc1ccccc1)NC(=O)[C@@H](NC(=O)[C@H](CCCCN)NC(=O)[C@H](CC(C)C)NC(=O)[C@H](Cc1ccccc1)NC(=O)[C@H](CO)NC(=O)[C@H](CCCCN)NC(=O)[C@H](Cc1c[nH]c2ccccc12)NC(=O)[C@H](CCCCN)NC(C)=O)[C@@H](C)O)[C@@H](C)O)C(C)C)[C@@H](C)O)C(=O)N[C@@H](CO)C(=O)N[C@@H](CO)C(N)=O, “mean residue ellipticity” read -22800 deg cm² dmol⁻¹ (circular dichroism at 222 nm; buffer with 50% TFE; 75 µM, 65 °C).
CN[C@@](C)(C[18F])C(=O)O has a tissue uptake of 9.3 ± 3.5 %ID/g (SCID mouse U87 xenograft, liver; 15 min, post injection).
The AUC of Oc1ccc2ccc3c4ccccc4cc4ccc1c2c43 is reported as 1.88 ± 0.47 fg BaP equivalents·h/mL (UPLC-AMS; human, plasma; oral, 25 ng of [14C]-BaP).
COc1cccc2c1cc([N+](=O)[O-])c1c(C(=O)O)cc3c(c12)OCO3 has a urine concentration of 0.2 µM (HPLC; rat (Wistar, male), urine; subcutaneous, 2 mg, 24 h collection).
The solubility of NC(=O)c1nc(F)c[nH]c1=O is reported as 2060 µg/mL (≈ 13.1 mM) (UV-Vis spectrophotometry; supercritical CO2; 120 min, 318 K, 30 MPa, 890.92 kg/m^3).
For [123I]c1cncc(OC[C@@H]2CCN2)c1, the tissue/plasma ratio was 34 (SPECT; human, head of caudate nucleus; intravenous bolus, 7.35 mCi; baseline: tissue over plasma).
CCCCCOc1ccc(-c2cc(-c3ccc(C(=O)N[C@H]4C[C@@H](O)[C@@H](O)NC(=O)[C@@H]5[C@@H](O)[C@@H](C)CN5C(=O)[C@H]([C@H](O)CC(N)=O)NC(=O)[C@H]([C@H](O)[C@@H](O)c5ccc(O)c(OS(=O)(=O)O)c5)NC(=O)[C@@H]5C[C@@H](O)CN5C(=O)[C@H]([C@@H](C)O)NC4=O)cc3)no2)cc1 has a steady-state clearance of 7.21 mL/min (human paediatric patients 6 to sample C years, plasma; intravenous, 3 mg/kg once daily, day 7, mean).
O=C(NCCS)c1cccc(C(=O)NCCS)c1 has a plasma concentration of 100 ng/mL (rat Sprague-Dawley male; intravenous, 1 mg/kg, 3 h).
CSCC[C@@H]1NC(=O)[C@H](CC(=O)O)NC(=O)CNC(=O)[C@H](CCCNC(=N)N)NC(=O)[C@H](C)NC(=O)[C@H](CCC(=O)O)NC(=O)[C@H](CCCNC(=N)N)NC(=O)[C@@H]2CSSC[C@@H]3NC(=O)[C@H](CO)NC(=O)[C@H]([C@@H](C)O)NC(=O)[C@@H]4CCCN4C(=O)[C@H](C)NC(=O)[C@H](Cc4c[nH]c5ccccc45)NC(=O)[C@H](CC(=O)O)NC(=O)CNC(=O)[C@H](CCCNC(=N)N)NC(=O)CNC(=O)[C@H](CCC(N)=O)NC(=O)[C@@H]4CCCN4C(=O)[C@@H](NC(=O)CNC(=O)C(C)F)CSSC[C@H](NC(=O)CNC(=O)[C@H](C)NC(=O)[C@H](CC(C)C)NC(=O)[C@H](CSSC[C@@H](C(=O)NCC(N)=O)NC(=O)[C@H]([C@@H](C)O)NC(=O)[C@H](CCCNC(=N)N)NC(=O)[C@@H]4CCCN4C1=O)NC(=O)[C@H](CC(=O)O)NC(=O)[C@H](CO)NC(=O)[C@H](CC(=O)O)NC(=O)[C@H](CCC(N)=O)NC(=O)[C@H](CO)NC3=O)C(=O)N[C@@H](C(C)C)C(=O)N2 (some centres unmarked) [fluorine-18 labelled] has a tissue uptake of 0.47 ± 0.18 %ID/g (nude mouse, U-87 MG xenograft, lungs; intravenous, 2.5 h, together with: cyclo(RGDyK) co-injected).

Excerpt of the above:
The AUC of Oc1ccc2ccc3c4ccccc4cc4ccc1c2c43 is reported as 1.88 ± 0.47 fg BaP equivalents·h/mL (UPLC-AMS; human, plasma; oral, 25 ng of [14C]-BaP).
